Measurements collected from several papers.
Numbered parts are unrelated; each lists some results of a single study. Substitutions count along the parent as printed.

Study 1
Target: Interferon regulatory factor 7, full length, phosphomimetic (IRF7, Homo sapiens, UniProt Q92985, residues 1-503, S101K/S471D/S472D/S475D/S476D/S477D/S483D/S484D/S487D)
Chain of UniProt Q92985 (whole entry, unmodified, looked up): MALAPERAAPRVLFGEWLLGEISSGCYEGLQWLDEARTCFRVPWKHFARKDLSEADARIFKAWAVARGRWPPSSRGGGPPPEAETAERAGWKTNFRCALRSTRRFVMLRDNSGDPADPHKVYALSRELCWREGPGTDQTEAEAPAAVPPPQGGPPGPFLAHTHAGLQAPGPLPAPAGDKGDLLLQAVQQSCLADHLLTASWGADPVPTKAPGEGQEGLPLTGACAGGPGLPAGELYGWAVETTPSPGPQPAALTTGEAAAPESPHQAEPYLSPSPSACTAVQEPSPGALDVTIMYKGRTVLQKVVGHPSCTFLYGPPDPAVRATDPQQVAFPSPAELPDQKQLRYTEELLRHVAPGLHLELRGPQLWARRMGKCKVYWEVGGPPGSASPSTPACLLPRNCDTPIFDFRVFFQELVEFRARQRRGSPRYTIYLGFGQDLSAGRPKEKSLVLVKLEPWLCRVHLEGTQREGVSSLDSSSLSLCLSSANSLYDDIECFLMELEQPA
Technique: protein-binding microarray
Form: double-stranded DNA, one strand shown
Matrix: in vitro
Concentration: 250 nM
Setting: 60-bp whole probe
With: salmon DNA 0.4 mg/ml
Relative to: random background probes
Reading: higher = stronger binding
Constant ends, left off below: GCCTAGCAC … GTCTTGATTCGCTTGACGCTGCTG
Sequence | log fluorescence
ATAGGTCTCCTTTTCCTTTAGTGCTAG | 1.61 z-score
TTAAGTATCGGGTATCGGTTAGTGCTA | 1.37 z-score
TCAGCTATGTTGTCCAGGACTGTGCTA | -0.583 z-score
GCCGATTCCAGTTTCGAGACGTGCTAG | 4.82 z-score
TTAGATACCAGTATCGATTAGTGCTAG | 1.24 z-score
TCATTTATACCTTAGGTACTGTGCTAG | 1.32 z-score
GACGCTCTCGGTCTCGGGACGTGCTAG | 0.229 z-score
TTAGAGTTCGGGTATCGATTAGTGCTA | 0.543 z-score
TTAGGTTTCCTACAGCTTTAGTGCTAG | 0.524 z-score
TCAGTTTCTCCTTTCGGACTGTGCTAG | 3.61 z-score
GACGGTTTCTGGTATCGGGACGTGCTA | 2.45 z-score
TCAATCATTGCTTTCTCACTGTGCTAG | 0.241 z-score
TTAGAACTGAGTTTCGACTAGTGCTAG | 3.21 z-score
TCATATGTCTGTTTTTGACTGTGCTAG | 0.349 z-score
TTAGGTTTCGGTTCCGGTTGGTGCTAG | 12.5 z-score
GACGGACTGCTACTACTGACGTGCTAG | -0.593 z-score
GTTTGGGTCTTGTCTGGAGTCGTGCTA | 0.442 z-score

Study 2
Target: CCNB2, cyclin fold, Cln2 fusion (human)
Technique: yeast growth competition, sequencing
Matrix: yeast
Setting: weak parent motif
Relative to: not given
Reading: higher = stronger binding
Parent: PKN2 docking peptide (human); VSAVRKLDFSDTM
Variant | normalised enrichment score
VSAVRKLDFCDTM [S10C] | 0.335
VVAVRKLDFSDTM [S2V] | 0.117
VAAVRKLDFSDTM [S2A] | 0.0824
VSNVRKLDFSDTM [A3N] | 0.113
VSAVRKLDFQDTM [S10Q] | 0.728
VSIVRKLDFSDTM [A3I] | 3.4
VSAVRKDDFSDTM [L7D] | -0.235
VSAVRQLDFSDTM [K6Q] | 0.318
VSAVRKLVFSDTM [D8V] | 0.188
VSAVRKLDESDTM [F9E] | -0.0521
VHAVRKLDFSDTM [S2H] | 0.141
VSAVRKLDFSDEM [T12E] | 1.33
VSAVRKLDFSETM [D11E] | 0.44
VSAYRKLDFSDTM [V4Y] | 0.215
VSAVEKLDFSDTM [R5E] | -0.174
VSCVRKLDFSDTM [A3C] | 2.32
VSAVRYLDFSDTM [K6Y] | 0.0972
VSAVIKLDFSDTM [R5I] | -0.094
VSAPRKLDFSDTM [V4P] | 0.0563
VSAVRKRDFSDTM [L7R] | 0.512
VFAVRKLDFSDTM [S2F] | -0.135
VKAVRKLDFSDTM [S2K] | 0.279
VSAVMKLDFSDTM [R5M] | 0.247
VSAVRKIDFSDTM [L7I] | 0.733
VSAVRALDFSDTM [K6A] | 0.204

Study 3
Target: Histone acetyltransferase KAT6A, both winged helices, GST fusion (KAT6A, Homo sapiens, UniProt Q92794, residues 1-181)
Technique: protein binding microarray
Form: double-stranded DNA, one strand shown
Matrix: in vitro
Concentration: not given
Setting: 8-mer, flanks averaged, mean of 2 arrays, mostly near background
Relative to: not given
Reading: higher = stronger binding
Construct (chain): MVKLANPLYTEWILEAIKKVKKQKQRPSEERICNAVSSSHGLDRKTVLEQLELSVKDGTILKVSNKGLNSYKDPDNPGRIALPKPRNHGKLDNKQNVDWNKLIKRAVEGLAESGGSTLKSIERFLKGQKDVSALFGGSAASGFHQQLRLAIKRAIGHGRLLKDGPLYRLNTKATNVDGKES
Sequence | E-score
CGAGAGCA | -0.0303
ATAAGGCC | 0.121
AAACTATC | -0.00663
ATTCAACA | -0.0358
ACGAGAGG | -0.115
ACAAACGA | -0.0949
GCAAGGGC | -0.0461
CAGGAAGA | -0.0773
ATCCACCA | -0.235
CGAGACTA | -0.105
AATGAGGG | -0.292
ATGACTCC | -0.118
ACTCCCCG | 0.207
CAGCCCCA | -0.0825
CTCTCCAG | -0.265
ACTGGGGA | -0.199
TGAAGCAA | -0.129
AGATCACA | -0.0833
ACATTGCG | 0.147
ACGCTGTG | 0.118
AGTTGATC | -0.06
CAATGAGA | -0.209
AAACCATA | -0.00428
CATTCTGC | -0.0184
CTCCTATC | -0.132

Study 4
Target: RING finger protein unkempt homolog, zinc fingers 1-6, GST-SBP tag (UNK, Homo sapiens, UniProt Q9C0B0, residues 30-357)
Technique: RNA Bind-n-Seq
Form: RNA
Matrix: in vitro
Concentration: not given
Setting: RNA with constant flanks, human and mouse sites, ends assumed
Relative to: input RNA pool
Reading: higher = stronger binding
Constant ends, left off below: GGGAGUUCUACAGUCCGACGAUC … CAACAGAGGAUUGAGCAUCA
Residues (chain): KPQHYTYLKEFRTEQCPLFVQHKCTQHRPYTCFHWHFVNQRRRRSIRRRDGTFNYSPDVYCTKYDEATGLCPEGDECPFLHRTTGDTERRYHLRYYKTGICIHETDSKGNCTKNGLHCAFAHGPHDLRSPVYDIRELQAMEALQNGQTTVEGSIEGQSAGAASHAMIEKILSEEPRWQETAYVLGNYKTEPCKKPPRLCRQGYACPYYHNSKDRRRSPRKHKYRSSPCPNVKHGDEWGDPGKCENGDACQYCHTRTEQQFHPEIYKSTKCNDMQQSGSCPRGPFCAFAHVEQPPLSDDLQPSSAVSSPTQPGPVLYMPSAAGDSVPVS
Sequence | bound/input enrichment
AACUUCAAGCCGGUAACUGCACACAACAGGCCUGGGAGCGAACUGUGUGAAGGACCUUAAUUCAAAUCAGAGAAAAUCAUUAUUUAUUUUUUUGUAGUAGUAAUGUCAUAUGAAUGUAUC | 3.37 ratio
UCUGCCACCCCGAGGAGCAGCAGCUCAGCUUCAUCGAGCGCCUGGUGGAGAUGGCCAGCAGCCUGGCCAUCCGCGAGUGGCGGCGGCUGCCCCACGUAGUGUCCCACGUGCACACGCCUC | 0.0572 ratio
GGAGAAUGAAUCCUUUGGAUACUUUCAAGGACAUUCAAAUGUGAAAAUGAAUUUUUUACAACUAGAAGUAUUUAUAAUAAAAGACCAAACUUAUUUUUGUAAAUGAACCCAUAUGCUUUA | 1.77 ratio
UAGUUUGUUGUUUAAAAUAAUGUAAUCAUCAAAAUGAUGCAUAUUGUUACACUACUAUUAACUAGGCUUCAGUAUAUCAGUGUUUAUUUCAUUGUGUUAAAUGUAUACUUGUAAAUAAAA | 0.325 ratio
GGACAUCUGUCAAAUUGUUAUGUUCCUGUGAAACAAGUGAACACUCUGAUACACUUCAUCUGCUUGUACAUCUGUAUGAUAGAGAAAUGUAAAUAUGUUAAUCCAAGCAAUGUGUCACUU | 0.235 ratio
AAGCUAAAGAAGGUUGUGAGGCUUGCCCGGGUUCGAGAUCAUUAUAUCUUCUCUGUUGAGUCAACGGGGGUGUUGCCACCAGAUGUGCUGGUGAGUGAAGCCAUCAAAGUACUGAUGGGG | 0.176 ratio
GUGGUUUGGUCGGGGGCCCAGCGGGUGGCCCGGGUCACCGCCCGUGCUUCGGCGGCCAUCUUGCCCGCGCCCGUCUCCCGCGGCGGGAGGGGCGGCGUACAGGCCGGAAACGUCUGUGUG | 0.22 ratio
AUACAGUCUCAACAGAUCACCCCCCAGCUUGCGCUUCAAGUUCUACUUCAGUUUGAUAAAGCUAUAAAUUCAGCAUUGGCUCAGAGAGUCAGGAACAGAGUCAAUUUCAGGGGCUCUCUA | 0.156 ratio
UUAGGAAAACAUCAGCUUAAUGAACUUGGGAGUGAAUCUGCUAAAAUUAAAGCCAUGGGUAUAAUGGACAAGCUUUCAACUGACAAAACUGUGAAAGUCCUAAAUAUAUUGGAGAAGAAU | 0.285 ratio
AUAAAUUUGUAAAUCCUAAUUCAAAGAUGGCUCAUGUGUGAGGGCAUUGAGUUUGAUUUGUUUUCCCUUUGGUCUGGGUUGUGUGGCUUUUGGGGGAUGCGUGUGAGGGGGCUAUGUGUU | 1.05 ratio
GCAGUCUUGGUUGGUUAGCUAUUUGCGCGCAAAUGUUGUGAUCCUGCCAUUAUAGAUUUCUUGUUUCUGUUUUUAGUAAUGUAGUGAGUAGCUCCAGGUGCCACAUCUACUCACAGAUUU | 1.57 ratio

Study 5
Target: Prothrombin, mature alpha-thrombin (F2, Homo sapiens, UniProt P00734)
Technique: aptamer microarray, sandwich
Form: DNA with 2'F-ANA
Matrix: in vitro
Concentration: 200 nM
Setting: whole 15-mer aptamer, many near background
With: Cy3 exosite-II aptamer, 400 nM
Reading: higher = stronger binding
Sequence: GGTTGGTGTGGTTGG
Modification | mean fluorescence intensity
2'F-ANA at 4 5 8 10 11 12 15 | 64.7 a.u.
2'F-ANA at 3 6 8 9 11 12 13 14 15 | 482 a.u.
2'F-ANA at 4 5 7 10 12 | 97.5 a.u.
2'F-ANA at 1 2 4 6 10 12 14 15 | 51.2 a.u.
2'F-ANA at 1 3 5 7 9 10 11 13 15 | 47.3 a.u.
2'F-ANA at 1 2 4 5 6 7 9 10 11 12 13 | 46.7 a.u.
2'F-ANA at 8 10 11 12 13 14 | 99.6 a.u.
2'F-ANA at 3 6 7 8 10 15 | 647 a.u.
2'F-ANA at 1 2 3 4 7 10 12 14 15 | 51 a.u.
2'F-ANA at 1 3 5 6 11 14 | 59.8 a.u.
2'F-ANA at 1 3 4 5 6 9 11 13 15 | 89.1 a.u.
2'F-ANA at 1 4 5 6 7 9 12 15 | 101 a.u.
2'F-ANA at 1 4 5 6 8 9 10 13 | 48.9 a.u.
2'F-ANA at 2 3 6 7 8 10 13 | 331 a.u.
2'F-ANA at 3 4 5 7 9 11 12 13 | 87.7 a.u.
2'F-ANA at 3 6 8 11 12 13 | 1110 a.u.
2'F-ANA at 6 7 9 14 15 | 180 a.u.
2'F-ANA at 3 4 6 7 13 14 | 287 a.u.
2'F-ANA at 2 3 5 6 9 10 11 12 | 58.3 a.u.
2'F-ANA at 2 5 8 9 10 11 12 13 14 | 49.2 a.u.
2'F-ANA at 2 3 4 5 7 8 9 11 14 15 | 88.6 a.u.
2'F-ANA at 3 7 9 10 13 14 15 | 440 a.u.
2'F-ANA at 4 5 6 9 10 11 12 14 15 | 56.6 a.u.
2'F-ANA at 1 3 4 5 8 11 15 | 61.7 a.u.
2'F-ANA at 3 5 9 11 12 13 14 | 56.4 a.u.

Study 6
Target: ABI1, truncated, D143A, DHFR fusion (Arabidopsis thaliana)
Technique: DHFR PCA, deep sequencing
Matrix: yeast
Setting: methotrexate growth selection, single substitutions
With: (+)-ABA 17 µM
Relative to: wild-type fitted maximum
Reading: higher = stronger binding
Parent: PYL1, truncated, DHFR fusion (Arabidopsis thaliana); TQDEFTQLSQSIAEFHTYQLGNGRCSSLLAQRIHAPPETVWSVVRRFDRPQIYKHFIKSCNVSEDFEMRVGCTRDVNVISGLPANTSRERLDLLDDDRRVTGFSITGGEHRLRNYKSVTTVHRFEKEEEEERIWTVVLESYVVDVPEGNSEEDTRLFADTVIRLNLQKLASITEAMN
Variant | relative binding score [%]
L8K | 12.9
E89H | 17.2
M176T | 80.4
C60D | 3.31
I79F | 83.3
L94R | 1.17
R98P | -4.34
L138Y | 41.2
G148D | 62.5
E38I | 15
E38Q | 68.6
T1E | 85.6
T1C | 83.4
L169Y | -9.23
T154P | -2.67
V78N | 20

A few entries again (study 3):
Sequence | E-score
ACGAGAGG | -0.115
ACAAACGA | -0.0949
GCAAGGGC | -0.0461
CAGGAAGA | -0.0773
ATCCACCA | -0.235
CGAGACTA | -0.105
AATGAGGG | -0.292
ATGACTCC | -0.118
ACTCCCCG | 0.207
CAGCCCCA | -0.0825
CTCTCCAG | -0.265
ACTGGGGA | -0.199
TGAAGCAA | -0.129
